Measured values collected from several papers.
Method: steady-state kinetics
B1: POLK T408W/W214Y/W392H (Homo sapiens, UniProt Q9UBT6); chain MGLNDNKAGMEGLDKEKINKIIMEATKGSRFYGNELKKEKQVNQRIENMMQQKAQITSQQLRKAQLQVDRFAMELEQSRNLSNTIVHIDMDAFYAAVEMRDNPELKDKPIAVGSMSMLSTSNYHARRFGVRAAMPGFIAKRLCPQLIIVPPNFDKYRAVSKEVKEILADYDPNFMAMSLDEAYLNITKHLEERQNYPEDKRRYFIKMGSSVENDNPGKEVNKLSEHERSISPLLFEESPSDVQPPGDPFQVNFEEQNNPQILQNSVVFGTSAQEVVKEIRFRIEQKTTLTASAGIAPNTMLAKVCSDKNKPNGQYQILPNRQAVMDFIKDLPIRKVSGIGKVTEKMLKALGIITCTELYQQRALLSLLFSETSHHYFLHISLGLGSTHLWRDGERKSMSVERTFSEINKAEEQYSLCQELCSELAQDLQKERLKGRTVTIKLKNVNFEVKTRASTVSSVVSTAEEIFAIAKELLKTEIDADFPHPLRLRLMGVRISSFPNEEDRKHQQ
B2: ERAP1 (Homo sapiens, UniProt Q9NZ08); chain MVFLPLKWSLATMSFLLSSLLALLTVSTPSWCQSTEASPKRSDGTPFPWNKIRLPEYVIPVHYDLLIHANLTTLTFWGTTKVEITASQPTSTIILHSHHLQISRATLRKGAGERLSEEPLQVLEHPRQEQIALLAPEPLLVGLPYTVVIHYAGNLSETFHGFYKSTYRTKEGELRILASTQFEPTAARMAFPCFDEPAFKASFSIKIRREPRHLAISNMPLVKSVTVAEGLIEDHFDVTVKMSTYLVAFIISDFESVSKITKSGVKVSVYAVPDKINQADYALDAAVTLLEFYEDYFSIPYPLPKQDLAAIPDFQSGAMENWGLTTYRESALLFDAEKSSASSKLGITMTVAHELAHQWFGNLVTMEWWNDLWLNEGFAKFMEFVSVSVTHPELKVGDYFFGKCFDAMEVDALNSSHPVSTPVENPAQIREMFDDVSYDKGACILNMLREYLSADAFKSGIVQYLQKHSYKNTKNEDLWDSMASICPTDGVKGMDGFCSRSQHSSSSSHWHQEGVDVKTMMNTWTLQKGFPLITITVRGRNVHMKQEHYMKGSDGAPDTGYLWHVPLTFITSKSDMVHRFLLKTKTDVLILPEEVEWIKFNVGMNGYYIVHYEDDGWDSLTGLLKGTHTAVSSNDRASLINNAFQLVSIGKLSIEKALDLSLYLKHETEIMPVFQGLNELIPMYKLMEKRDMNEVETQFKAFLIRLLRDLIDKQTWTDEGSVSERMLRSQLLLLACVHNYQPCVQRAEGYFRKWKESNGNLSLPVDVTLAVFAVGAQSTEGWDFLYSKYQFSLSSTEKSQIEFALCRTQNKEKLQWLLDESFKGDKIKTQEFPQILTLIGRNPVGYPLAWQFLRKNWNKLVQKFELGSSSIAHMVMGTTNQFSTRTRLEEVKGFFSSLKENGSQLRCVQQTIETIEENIGWMDKNFDKIRVWLQSEKLEHDPEADATG
B3: pol D141A/E143A (Thermococcus kodakarensis, UniProt P77933); chain 1 MILDTDYITEDGKPVIRIFKKENGEFKIEYDRTFEPYFYALLKDDSAIEEVKKITAERHGTVVTVKRVEKVQKKFLGRPVEVWKLYFTHPQDVPAIRDKIREHPAVIDIYEYDIPFAKRYLIDKGLVPMEGDEELKMLAFAIATLYHEGEEFAEGPILMISYADEEGARVITWKNVDLPYVDVVSTEREMIKRFLRVVKEKDPDVLITYNGDNFDFAYLKKRCEKLGINFALGRDGSEPKIQRMGDRFAVEVKGRIHFDLYPVIRRTINLPTYTLEAVYEAVFGQPKEKVYAEEITTAWETGENLERVARYSMEDAKVTYELGKEFLPMEAQLSRLIGQSLWDVSRSSTGNLVEWFLLRKAYERNELAPNKPDEKELARRRQSYEGGYVKEPERGLWENIVYLDFR; chain 2 SLYPSIIITHNVSPDTLNREGCKEYDVAPQVGHRFCKDFPGFIPSLLGDLLEERQKIKKKMKATIDPIERKLLDYRQRAIKILAN; chain 3 NSYYGYYGYARARWYCKECAESVTAWGREYITMTIKEIEEKYGFKVIYSDTDGFFATIPGADAETVKKKAMEFLKYINAKLPGALELEYEGFYKRGFFVTKKKYAVIDEEGKITTRGLEIVRRDWSEIAKETQARVLEALLKDGDVEKAVRIVKEVTEKLSKYEVPPEKLVIHEQITRDLKDYKATGPHVAVAKRLAARGVKIRPGTVISYIVLKGSGRIGDRAIPFDEFDPTKHKYDAEYYIENQVLPAVERILRAFGYRKEDLRYQKTRQVGLSAWLKPKGT
B4: cbh1 (Trichoderma reesei, UniProt P62694); chain QSACTLQSETHPPLTWQKCSSGGTCTQQTGSVVIDANWRWTHATNSSTNCYDGNTWSSTLCPDNETCAKNCCLDGAAYASTYGVTTSGNSLSIGFVTQSAQKNVGARLYLMASDTTYQEFTLLGNEFSFDVDVSQLPCGLNGALYFVSMDADGGVSKYPTNTAGAKYGTGYCDSQCPRDLKFINGQANVEGWEPSSNNANTGIGGHGSCCSEMDIWEANSISEALTPHPCTTVGQEICEGDGCGGTYSDNRYGGTCDPDGCDWNPYRLGNTSFYGPGSSFTLDTTKKLTVVTQFETSGAINRYYVQNGVTFQQPNAELGSYSGNELNDDYCTAEEAEFGGSSFSDKGGLTQFKKATSGGMVLVMSLWDDYYANMLWLDSTYPTNETSSTPGAVRGSCSTSSGVPAQVESQSPNAKVTFSNIKFGPIGSTGNPSGGNPPGGNRGTTTTRRPATTTGSSPGPTQSHYGQCGGIGYSGPTVCASGTTCQVLNPYYSQCL
B5: FDC1 (Saccharomyces cerevisiae, UniProt Q03034); chain MRKLNPALEFRDFIQVLKDEDDLIEITEEIDPNLEVGAIMRKAYESHLPAPLFKNLKGASKDLFSILGCPAGLRSKEKGDHGRIAHHLGLDPKTTIKEIIDYLLECKEKEPLPPITVPVSSAPCKTHILSEEKIHLQSLPTPYLHVSDGGKYLQTYGMWILQTPDKKWTNWSIARGMVVDDKHITGLVIKPQHIRQIADSWAAIGKANEIPFALCFGVPPAAILVSSMPIPEGVSESDYVGAILGESVPVVKCETNDLMVPATSEMVFEGTLSLTDTHLEGPFGEMHGYVFKSQGHPCPLYTVKAMSYRDNAILPVSNPGLCTDETHTLIGSLVATEAKELAIESGLPILDAFMPYEAQALWLILKVDLKGLQALKTTPEEFCKKVGDIYFRTKVGFIVHEIILVADDIDIFNFKEVIWAYVTRHTPVADQMAFDDVTSFPLAPFVSQSSRSKTMKGGKCVTNCIFRQQYERSFDYITCNFEKGYPKGLVDKVNENWKRYGYK
B6: Saccharopine reductase Y99F (Saccharomyces cerevisiae, UniProt P38999); chain MGKNVLLLGSGFVAQPVIDTLAANDDINVTVACRTLANAQALAKPSGSKAISLDVTDDSALDKVLADNDVVISLIPYTFHPNVVKSAIRTKTDVVTSSFISPALRELEPEIVKAGITVMNEIGLDPGIDHLYAVKTIDEVHRAGGKLKSFLSYCGGLPAPEDSDNPLGYKFSWSSRGVLLALRNSAKYWKDGKIETVSSEDLMATAKPYFIYPGYAFVCYPNRDSTLFKDLYHIPEAETVIRGTLRYQGFPEFVKALVDMGMLKDDANEIFSKPIAWNEALKQYLGAKSTSKEDLIASIDSKATWKDDEDRERILSGFAWLGLFSDAKITPRGNALDTLCARLEELMQYEDNERDMVVLQHKFGIEWADGTTETRTSTLVDYGKVGGYSSMAATVGYPVAIATKFVLDGTIKGPGLLAPYSPEINDPIMKELKDKYGIYLKEKTVA
B7: GSH1 R403E (Arabidopsis thaliana, UniProt P46309); chain AASPPTEEAVVATEPLTREDLIAYLASGCKTKDKYRIGTEHEKFGFEVNTLRPMKYDQIAELLNGIAERFEWEKVMEGDKIIGLKQGKQSISLEPGGQFELSGAPLETLHQTCAEVNSHLYQVKAVAEEMGIGFLGIGFQPKWRREDIPIMPKGRYDIMRNYMPKVGTLGLDMMLRTCTVQVNLDFSSEADMIRKFRAGLALQPIATALFANSPFTEGKPNGFLSMRSHIWTDTDKDRTGMLPFVFDDSFGFEQYVDYALDVPMYFAYRKNKYIDCTGMTFRQFLAGKLPCLPGELPSYNDWENHLTTIFPEVRLKRYLEMRGADGGPWERLCALPAFWVGLLYDDDSLQAILDLTADWTPAEREMLRNKVPVTGLKTPFRDGLLKHVAEDVLKLAKDGLERRGYKEAGFLNAVDEVVRTGVTPAEKLLEMYNGEWGQSVDPVFEELLY
B8: protein (Anopheles gambiae, UniProt Q7PXJ0); chain MPFPYSIDFVESKQNEQLLKDFHGERTGFVQVGEKRWFFPSRFKQYAESLYSFEARPDDTWIVTYPRSGTTWSQEMVWLLCNELDFETAKSIPLTQRFPFLEFHLFVHDEVKAEFLKENEHDVESMKFIEQLSQPAGFMLAEMKTPRFIKTHLPISLLPPSVFEQKAKIIYVARNPSDVAVSYYHLNRLYRTQGYVGDFETFYNYFEKDLTPWSPYWEHIKEGWAERDRENVLFMYYEDMKRNLPDTIRKTAAFLGKSFSDDQIDTMCTHLDIRNFRHNKSVTCEELKAVGILNSGEQGFVRNGQVRGNAEEMTDDIKRRLNEWTERNLNGTDIRFPDC
Chain of UniProt P42826 (whole entry, looked up): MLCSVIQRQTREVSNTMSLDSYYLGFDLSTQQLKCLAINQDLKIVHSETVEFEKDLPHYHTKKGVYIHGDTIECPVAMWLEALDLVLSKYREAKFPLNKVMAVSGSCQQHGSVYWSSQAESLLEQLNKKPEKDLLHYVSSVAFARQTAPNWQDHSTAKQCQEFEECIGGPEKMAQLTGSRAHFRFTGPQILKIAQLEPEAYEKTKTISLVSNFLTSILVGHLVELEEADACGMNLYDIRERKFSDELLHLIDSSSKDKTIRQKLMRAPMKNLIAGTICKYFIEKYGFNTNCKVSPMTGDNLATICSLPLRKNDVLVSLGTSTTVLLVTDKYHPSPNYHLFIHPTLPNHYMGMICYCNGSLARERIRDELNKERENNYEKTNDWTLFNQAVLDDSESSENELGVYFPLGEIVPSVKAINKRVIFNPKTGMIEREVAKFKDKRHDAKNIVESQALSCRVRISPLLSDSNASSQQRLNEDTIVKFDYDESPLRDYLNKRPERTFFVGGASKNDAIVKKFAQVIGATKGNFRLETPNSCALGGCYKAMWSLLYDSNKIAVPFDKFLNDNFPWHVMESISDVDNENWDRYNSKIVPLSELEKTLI

The Km of `B1 (POLK T408W/W214Y/W392H)` is reported as 1.3 µM (Nc1ccn([C@H]2C[C@H](O)[C@@H](COP(=O)(O)OP(=O)(O)OP(=O)(O)O)O2)c(=O)n1; pH 7.5, 23 °C, MgCl2 5 mM, together with: G template).
For `enzyme (Saccharomyces cerevisiae, UniProt P42826)`, the Km was 210 µM (O=C(CO)[C@@H](O)[C@H](O)CO; pH 7.4, 30 °C).
For `B2 (ERAP1)`, the Km was 2.4 µM (CC(C)C[C@H](N)C(=O)N[C@@H](CO)C(=O)N[C@@H](CCCNC(=N)N)C(=O)N[C@@H](Cc1c[nH]cn1)C(=O)N[C@@H](Cc1c[nH]cn1)C(=O)N[C@@H](C)C(=O)N[C@@H](Cc1ccccc1)C(=O)N[C@@H](CO)C(=O)N[C@@H](Cc1ccccc1)C(=O)N[C@@H](CCCNC(=N)N)C(=O)O; 25 °C).
`B3 (pol D141A/E143A)` has a Km of 4 µM (Nc1nc2c(ncn2[C@H]2C[C@H](O)[C@@H](COP(=O)(O)OP(=O)(O)OP(=O)(O)O)O2)c(=O)[nH]1; pH 8, 55 °C).
With `TIIAS (Salvia miltiorrhiza, UniProt A0A8K1XH31)` the Km was 67.7 µM (C[C@H]1COC2=C1C(=O)C(=O)c1c2ccc2c1CCCC2(C)C; pH 6.5, 20 °C).
`B4 (cbh1)` has a Km of 590 µM ([H][C@@]1(O[C@H]2[C@H](O)[C@@H](O)[C@H](Oc3ccc([N+](=O)[O-])cc3)O[C@@H]2CO)O[C@H](CO)[C@H](O)[C@H](O)[C@H]1O; pH 5, 25 °C, apparent).
`B5 (FDC1)` has a Km of 180 µM (COc1cc(/C=C/C(=O)O)ccc1O; pH 7, 25 °C, apparent kcat, incomplete cofactor occupancy, apparent).
`protein (Cecembia lonarensis, UniProt K1KV82)` gave a Km of 7900 µM (O=[N+]([O-])c1ccc(O[C@@H]2OC[C@H](O)[C@@H](O)[C@@H]2O)cc1; pH 5.5, 35 °C, substrate inhibition).
With `ldh (Lactococcus cremoris, UniProt A2RKA4)` the Km was 66 µM (NC(=O)C1=CN([C@@H]2O[C@H](COP(=O)(O)OP(=O)(O)OC[C@H]3O[C@@H](n4cnc5c(N)ncnc54)[C@H](O)[C@@H]3O)[C@@H](O)[C@H]2O)C=CC1; pH 7, 30 °C, apparent).
With `B6 (Saccharopine reductase Y99F)` the Km was 5600 µM (N[C@@H](CCCCN[C@@H](CCC(=O)O)C(=O)O)C(=O)O; pH 9, 25 °C, together with: saccharopine).
The Km of `B7 (GSH1 R403E)` is reported as 1160 µM (Nc1ncnc2c1ncn2[C@@H]1O[C@H](COP(=O)(O)OP(=O)(O)OP(=O)(O)O)[C@@H](O)[C@H]1O; pH 7).
For `B8 (protein)`, the Km was 49.3 µM (Nc1ncnc2c1ncn2[C@@H]1O[C@H](COP(=O)(O)OS(=O)(=O)O)[C@@H](OP(=O)(O)O)[C@H]1O; pH 6.5, 37 °C, together with: sulfate donor).

For quick reference, copied from above:
For `B2 (ERAP1)`, the Km was 2.4 µM (CC(C)C[C@H](N)C(=O)N[C@@H](CO)C(=O)N[C@@H](CCCNC(=N)N)C(=O)N[C@@H](Cc1c[nH]cn1)C(=O)N[C@@H](Cc1c[nH]cn1)C(=O)N[C@@H](C)C(=O)N[C@@H](Cc1ccccc1)C(=O)N[C@@H](CO)C(=O)N[C@@H](Cc1ccccc1)C(=O)N[C@@H](CCCNC(=N)N)C(=O)O; 25 °C).
